Experimental data pooled from the literature.
Parts stem from different laboratories: compare values within a part only.

Block 1 — method: protein binding microarray; form: double-stranded DNA, one strand shown; matrix: in vitro; concentration: not given; relative to: not given; reading: higher = stronger binding
Target: Histone acetyltransferase KAT6A, winged helix 2, GST fusion (KAT6A, Homo sapiens, UniProt Q92794, residues 85-181)
Setting: 8-mer, flanks averaged, mean of 2 arrays, mostly near background
Target sequence (chain): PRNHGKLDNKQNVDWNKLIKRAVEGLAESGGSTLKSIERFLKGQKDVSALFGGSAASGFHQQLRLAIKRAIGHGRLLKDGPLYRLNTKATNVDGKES
Strand	E-score
AGTTAACC	-0.0223
GCAATTAA	0.0873
AGTTAGAC	0.0647
ATTGGTTC	0.0869
TAGCTATA	-0.189
AGATGTTC	0.0499
CGTCCCTC	0.04
AGGGCCCG	0.0396
GAGATCCA	-0.00388
CTTCTCTC	0.0174
ATAGTCGG	-0.144
GGTTCCAA	0.0665
CCGTCGAA	0.0327
AGATGGCC	-0.0738
GCTTTATA	-0.136
CGTCTAAG	-0.0293
ATACGGTC	-0.123
GAGCCCAA	-0.0965
CTGACGGC	0.132
GAACGTCA	-0.217
AGTTAAGA	-0.0192
CACGCTCA	-0.0188
ATTGTGAA	-0.0714
GGTTTGCA	0.0692
TCTCATAA	0.0486

Block 2 — method: RNA Bind-n-Seq; form: RNA; matrix: in vitro; concentration: not given; relative to: input RNA pool; reading: higher = stronger binding
Target: RING finger protein unkempt homolog, zinc fingers 1-6, GST-SBP tag (UNK, Homo sapiens, UniProt Q9C0B0, residues 30-357)
Chain of UniProt Q9C0B0 (30-357, looked up): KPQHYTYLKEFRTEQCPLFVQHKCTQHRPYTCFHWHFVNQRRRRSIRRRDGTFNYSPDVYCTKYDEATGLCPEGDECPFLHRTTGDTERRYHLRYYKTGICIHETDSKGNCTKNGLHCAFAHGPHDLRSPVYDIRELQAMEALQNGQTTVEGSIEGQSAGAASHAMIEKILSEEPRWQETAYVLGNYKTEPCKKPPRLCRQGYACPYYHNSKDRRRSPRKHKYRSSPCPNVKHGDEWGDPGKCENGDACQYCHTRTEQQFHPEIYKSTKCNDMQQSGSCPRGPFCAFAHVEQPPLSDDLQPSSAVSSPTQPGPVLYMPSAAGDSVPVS
Setting: RNA with constant flanks, human and mouse sites, ends assumed
Strand	bound/input enrichment
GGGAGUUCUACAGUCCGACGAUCCGACUCUCACUCACCUCCAGCGACUCACCCUGAUUUCCAGUUGCACUGGUUUUUUUUUUUUUUUUAAUAUAAUAAAAACUUAUCUGGCAUCAGCCUCAUACCUAAAGCUCCUGCCUGCAUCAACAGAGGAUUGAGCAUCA	0.823 ratio
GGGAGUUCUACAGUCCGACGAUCUAGUUGCCCCUCCUCCCACUCCCCAGUCCACGGUCACUGCAAAAUGAACCUUUCCACUCCCCUUGCACGGGGUCCUCGUCUACCUCCUCCCCUCCCACCAGUAAUGCAGUCAUUAAUCCUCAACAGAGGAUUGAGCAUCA	4.4 ratio
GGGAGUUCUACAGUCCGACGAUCUUUCUCCGUCGCCACAAGCGGCCCGGUGGCAUGUGCUAAGGCGGCUUCCGCUGUUUCAGUCUAGAUUUUUUUCUUAACAGUCCCAUUCCAAUUCUUUUGCAAGCAAAGAAACUGAGGCUGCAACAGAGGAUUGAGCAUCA	1.33 ratio
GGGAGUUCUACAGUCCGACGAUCAGACAUCAGAUUAAAUCAAGUUCAAAUAUUCCCUGUGUCCCCAAAGACUUACUGAUGAUGUCUGAAUUUGUUCUUCCAAGAUUCAUUUUUUGUCUUAUUCAGUACUUAAGAGAAGGCUAUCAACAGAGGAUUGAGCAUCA	0.216 ratio
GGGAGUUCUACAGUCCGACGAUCCAGAGAAGGGAAGAAAGUGAUCCUGAAUAUCGGUCCAGCAAAUCAAAGCCAUUGACCCUAUUAGAAUAUAAUUUAACUAUGGACACUGCAAAGCUGUUUAUGUCCUGCCUUCACGCCUGGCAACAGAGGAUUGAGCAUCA	2.07 ratio
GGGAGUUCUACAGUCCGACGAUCGAUAUGCACGUGGCCGACAUGCUGGUUAAGGUGAACGCACUUAUCAAGGAUCGGGAAGGUUAUGCUCCUGGCACAGAAUUCCACCGGUGCAAGGAGAUGUCUGAAUACUGCAGCACUCUGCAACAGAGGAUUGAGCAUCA	0.111 ratio
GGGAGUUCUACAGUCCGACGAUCAAUCAAGAAGUAGAAUUUGGCAGAAAUCGAGAGAGGCUUCAGUUUUUCAAGUGGAGCUCAGGAGCUUUUAAGAAUGUGGCAGUCAUCCCGCCUGGAACUGGAAUGGCUCAUCAAGUGAACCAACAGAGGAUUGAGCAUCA	0.365 ratio
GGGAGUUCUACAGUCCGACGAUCAAAAAAAGAAUAAAAAUCAGCCAUUUUCAACAAUUUAUAUUAUUUUUAAAAAUAAAUUUCACUAGUGCAUGGUUUUACAAUGGGAGAGAAUGCAACAGGGUGGUACAAAGACACACCGUGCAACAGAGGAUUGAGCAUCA	1.68 ratio
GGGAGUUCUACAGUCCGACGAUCCAUCCUGGAGUCCAGCGUAGCCACCCACAAUCUGUUCUCAGAUUCCUAAUCAUUCCAGAAGUAUUAAAUAUCAUUUCUACAAAUCUCGGCAGGAUCCGUGUAGGGGCCUUAAUGACCACCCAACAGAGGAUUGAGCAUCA	0.263 ratio
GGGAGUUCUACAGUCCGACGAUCUUCAUUCAUGCUAAUGUUGACAUUGACUUAAUUAUCACAGAAGAACCUGAGAUUGGCAAUAUAGAAAAACCAGUAGAAAUUUUUCAUAUAAUAGAACAUUUUUGUCUUGGUAGAAGACGCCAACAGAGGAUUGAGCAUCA	38.3 ratio
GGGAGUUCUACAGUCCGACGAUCAAGGGCGGGCUUGUAAUUUCUCAUCUGUGAAUUCAUCUGACCCUUGCCCAGCCUUGUUGGAAAUCUUAAGUAAGCUAAGCAGAACAUGAAGCUGCUUGCACAGUCAGGGACUCUGGGAGUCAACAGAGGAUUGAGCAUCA	0.115 ratio

Block 3 — method: protein-binding microarray; form: double-stranded DNA, one strand shown; matrix: in vitro; concentration: 2540 nM top; setting: 60-bp whole probe; added: salmon DNA 0.4 mg/ml; relative to: random background probes; reading: higher = stronger binding; shared flanks, not repeated: GCCTAGCAC … GTCTTGATTCGCTTGACGCTGCTG
Target: Interferon regulatory factor 3, full length, phosphomimetic (IRF3, Homo sapiens, UniProt Q14653, residues 1-427, S386D/S396D/S398D/S402D/T404D/S405D)
Chain of UniProt Q14653 (whole entry, unmodified, looked up): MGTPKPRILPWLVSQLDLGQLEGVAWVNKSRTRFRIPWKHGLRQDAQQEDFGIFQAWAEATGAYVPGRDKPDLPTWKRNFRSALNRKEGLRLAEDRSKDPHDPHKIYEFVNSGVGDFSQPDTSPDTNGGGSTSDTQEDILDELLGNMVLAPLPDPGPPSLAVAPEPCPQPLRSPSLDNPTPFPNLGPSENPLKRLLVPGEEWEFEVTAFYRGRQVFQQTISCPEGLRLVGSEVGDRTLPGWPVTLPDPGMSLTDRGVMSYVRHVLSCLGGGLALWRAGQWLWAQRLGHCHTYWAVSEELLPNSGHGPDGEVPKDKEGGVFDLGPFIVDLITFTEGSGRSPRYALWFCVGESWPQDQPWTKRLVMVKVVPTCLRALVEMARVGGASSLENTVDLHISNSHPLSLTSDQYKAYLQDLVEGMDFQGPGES
Strand	fitted relative affinity
TTAGGACTGGACTATCGGGTAGTGCTA	-0.54 z-score
TACGAACTGAGTATCGAGACGTGCTAG	0.155 z-score
TTAGGGCTGGACTATCGGTTAGTGCTA	-0.814 z-score
GACGAACTGAGACTGGATACGTGCTAG	0.0334 z-score
CCTTTTATGGTTTTTTTTTAGTGCTAG	2.98 z-score
ATGCCTTTCGTCAAGAAGACGTGCTAG	1.4 z-score
TTAGAACTGAGTCTTGATTAGTGCTAG	-0.458 z-score
TCTGACCCCCTGCGCGGCAGGTGCTAG	-0.315 z-score
GACAAACTGAGTATCGAGACGTGCTAG	-0.0215 z-score
TTAGGTTCCGGGTTCGGTTAGTGCTAG	1.99 z-score
TCACATTTTCTCTTATTACTGTGCTAG	1.75 z-score
TACGGTATCGGTTTCGGGACGTGCTAG	7.08 z-score
TCAAGTTCATGTTTTGGACTGTGCTAG	0.00508 z-score
GACGGTCTCCTTTTCCTGAGGTGCTAG	4.57 z-score
GAGGGTTTCCTTCTCCTGACGTGCTAG	8.13 z-score
GACTGTTTCGACTTTCGGGACGTGCTA	3.44 z-score
GACGGTTTTGACTTTCGGGACGTGCTA	1.65 z-score
TTTTTTTTCATCATTGCCTAGTGCTAG	1.7 z-score
GACGATTTCAATCTCGAGACGTGCTAG	2.08 z-score
TTAGATATCAGACAGGATTAGTGCTAG	-0.169 z-score
GACGGTATCGAAACTGGGGACGTGCTA	1.89 z-score
TTGTGTTTTCATTTTATGACGTGCTAG	3.45 z-score
TTAGGTTCCCTTTTCCTTTCGTGCTAG	7.9 z-score

Block 4 — method: RNA Bind-n-Seq; form: RNA; matrix: in vitro; concentration: 365 nM; relative to: no-protein control; reading: higher = stronger binding
Target: RNA binding protein fox-1 homolog 2, RRM domain, GST-SBP tag (RBFOX2, Homo sapiens, UniProt O43251-10, residues 100-194)
Setting: natural RNA segment, single round, ends assumed
Target sequence (chain): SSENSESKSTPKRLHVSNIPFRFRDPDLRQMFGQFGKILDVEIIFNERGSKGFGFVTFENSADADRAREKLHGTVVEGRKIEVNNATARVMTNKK
Strand	RBNS enrichment (R)
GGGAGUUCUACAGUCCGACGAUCAGUCACGUGGGGGAAGACCUCAGCCACAGCUGUAAGCAGCUCUCUGCCAGCCACAUGGCCGGGGACCGAAAAACUCCCGUGGGAGAUUUUGGCCCCAACCCACACAGGCCUGGAAUUCUCGGGUGCCAA	0.206
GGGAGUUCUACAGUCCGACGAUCUCUUUACUUUUUUAAUAUGUUGGGAUUUUAUUUUAUAUCUGAUGACUCCGAGUGUGUGCCAUCCAUUUGUUAAGUAACUGGCCUUUAGCAGAUCUGUUUCAAAAACAAAUUGGAAUUCUCGGGUGCCAA	0.912
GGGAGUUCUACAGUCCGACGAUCUUCUAUAUGGUAGAAUUACCAAAAGCUAUUCAGAUUUCUUAAUAAAGGGCAAAUCAACCAAGCCUGACAUCAUGUGCAGUGUGUUCUUUUGUGACGUGCAAAGGUCACAUUGGAAUUCUCGGGUGCCAA	0.54
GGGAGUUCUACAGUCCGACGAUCGUUUGUAUAGGGACCAUGUUUCCCAACGCACUUUGAGUGCAGUUUAGGAGGUAUCCUUUGGAUGCUGAAGUGUUGGGAUUUUGAGGACAUGCGGAUGAUUUAUGAGAAUAUGGAAUUCUCGGGUGCCAA	0.771
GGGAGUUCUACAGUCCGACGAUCGCUGGGAGUCGGCCUUUCCUCUAGUAACCACCACAUGGCUCAGCAUCUGUGCCAAACAUAGGCGCUCCUAGUCUGGUCAGUGCCAAGAGGCUACCAGAACAUGGGGCAGGUGGAAUUCUCGGGUGCCAA	0.477
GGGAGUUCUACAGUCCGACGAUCUACCGGGAAAGUUGGUUAUCUUGGGGUCUCAGCUUCAUUACUGCUUAGGGUUUCCCUGCCCACUCUGCAGGAGCAGAUGUUGGACAGGUAGCCAGUGGGAUGCCACUGCUUGGAAUUCUCGGGUGCCAA	0.269
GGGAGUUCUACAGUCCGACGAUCUUGUCUGGGCUCAUCACCUCUCCCUAUCCCAGACUAACUUUACUGUGAAAUCCUACCACAUUCCAUGUCUGAAUUUUUGGAUUCGGGGUGGAUUUUCGUUGUCCGUGGAAUGGAAUUCUCGGGUGCCAA	0.343
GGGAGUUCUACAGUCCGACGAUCUGUAUUCAGACAGUUAGAGUUUUGGAAGCACACUGGUGAGUAGCUUUUUGCCCCUCCUUCCUUAGCAAGCCCGUUUGAUUGACAGCUCUCCUGCUCUGAGUUCACUCUGUUGGAAUUCUCGGGUGCCAA	0.337
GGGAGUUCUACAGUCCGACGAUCCUUGGGAGUUGGCAAGAGGGAGGGAAGGAAGGAGAGCAAAAUCUUCGGAAGGUGUUUCUUGUACCUGAGGGAUCCUGCCCUGAAUCUCCAUAGUCUCCACUGUGAACUGAUGGAAUUCUCGGGUGCCAA	0.501
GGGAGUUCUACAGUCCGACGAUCCCCUUAGCCUUGCUGUAGAGACUUCCGUCACCCUUGGUAGAGUUUAUUUUUUUGAUGGCUAAGAUACGCUGAUGCUGAAAUAAACUAGGGUUUUGGCCUGCCUGCGUCUGUGGAAUUCUCGGGUGCCAA	1.57
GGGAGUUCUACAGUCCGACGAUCUCCUACAAAGCAAUAUUCCAAAGGAACAUUUUAACUGUAAAGGCUGGAGACAAGAAAAAAUAAGUAGAUCGUUUUAAUAACAAUUAUUUAAUUGCCUAUAAGUUUGCUGUUGGAAUUCUCGGGUGCCAA	0.534
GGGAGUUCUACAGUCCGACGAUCGCGCUGGGCUCGCUCAUGUGGUCGCCCUGCUGGUUCUGGCCCUGGGACUCGGAGCACUGACCCCUGCGCUUGGAUUGCUAGACUCCUCUUCCUCCUGGACCCCAUCCUCUUGGAAUUCUCGGGUGCCAA	0.276
